Assay results pooled from the literature.
Every numbered part comes from another study and shows a few of its results, in no order.

Series 1
Target: Histone acetyltransferase KAT6A, both winged helices, GST fusion (KAT6A, Homo sapiens, UniProt Q92794, residues 1-181)
Method: protein binding microarray
Molecule type: double-stranded DNA, one strand shown
Sample: in vitro
Tested at: not given
Notes: 8-mer, flanks averaged, mean of 2 arrays, mostly near background
Baseline: not given
Direction: higher = stronger binding
Target sequence (chain): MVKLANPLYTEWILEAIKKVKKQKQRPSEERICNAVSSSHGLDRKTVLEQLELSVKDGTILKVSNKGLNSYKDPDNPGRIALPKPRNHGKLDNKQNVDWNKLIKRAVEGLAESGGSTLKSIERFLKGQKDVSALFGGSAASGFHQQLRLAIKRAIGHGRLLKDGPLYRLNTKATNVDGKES
| Strand | E-score |
| --- | --- |
| AGACTACA | -0.0862 |
| ATTCGTCA | -0.0802 |
| GGGCGTAA | 0.103 |
| AAGCGTCG | 0.127 |
| AGTTGACC | 0.046 |
| ACGTTGCG | 0.19 |
| ATCGGTGC | 0.0103 |
| AGTGCGCA | 0.235 |

Series 2
Target: Replicase polyprotein 1ab, polymerase (rep, Severe acute respiratory syndrome coronavirus 2, UniProt P0DTD1)
Observed: enzyme activity
Action: inhibitor
Tested at: 20 µM
| SMILES | inhibition |
| --- | --- |
| COc1ccccc1N1CCN(CC(O)COc2cccc3ccccc23)CC1 (stereo not drawn) | -0.46% |
| Cc1nc(-c2ccc(OCC(C)C)c(C#N)c2)sc1C(=O)O | 6.46% |
| Cc1ccc(S(=O)(=O)NC(=O)NN2CCCCCC2)cc1 | 21.9% |
| Cc1ccccc1-n1c(Cn2ncc3c(N)ncnc32)nc2cccc(C)c2c1=O | 3.56% |
| C[C@@H]1[C@H](O)[C@@H](C)/C=C/C=C/C=C/C=C/C=C/C=C/C=C/[C@H](O[C@@H]2O[C@H](C)[C@@H](O)[C@H](N)[C@@H]2O)C[C@@H]2O[C@](O)(C[C@@H](O)C[C@@H](O)[C@H](O)CC[C@@H](O)C[C@@H](O)CC(=O)O[C@H]1C)C[C@H](O)[C@H]2C(=O)O | 4.44% |
| Cc1coc2c1C(=O)C(=O)c1c-2ccc2c(C)cccc12 | 10.5% |
| CN1C(=O)C(Cc2c[nH]c3ccccc23)NC1=S (stereo not drawn) | 0.64% |
| O=C(O)CCCN1CCC(O[C@@H](c2ccc(Cl)cc2)c2ccccn2)CC1 | -5.95% |
| COC(=O)C1=C(C)NC(C)=C(C(=O)OC(C)C)C1c1cccc2nonc12 (stereo not drawn) | -1.18% |
| CC(C(=O)O)c1ccc2c(c1)Cc1cccnc1O2 (stereo not drawn) | 0.51% |
| Cc1ccc(-n2nc(C(C)(C)C)cc2NC(=O)Nc2ccc(OCCN3CCOCC3)c3ccccc23)cc1 | -2.42% |
| COc1cc2nc(C3CC3)nc(N3CCN(c4ccccc4OC)CC3)c2cc1OC | 3.17% |
| Nc1n[n+]([O-])c2ccccc2[n+]1[O-] | 2.75% |
| COc1ccccc1S(=O)(=O)Nc1ccc2c(c1)CN(C)C(=O)N2 | -1.44% |
| O=C(Cc1ccc(-c2ccccc2)cc1)Nc1ccccn1 | 2.63% |
| COc1c(OCCCN2CCOCC2)ccc2c1N=C(NC(=O)c1cnc(N)nc1)N1CCN=C21 | -4.13% |
| CCCCCCCCCCCCCCCC[N+](C)(C)Cc1ccccc1 | 11.5% |
| NC(=S)N/N=C/c1ncccc1N | 0.08% |
| CCN(CC)CCOc1ccc(Nc2ncc3cc(-c4c(Cl)cccc4Cl)c(=O)n(C)c3n2)cc1 | -1.6% |
| CCOc1ccc(NC(=O)CC(C)O)cc1 (stereo not drawn) | -1.82% |
| COC(=O)CN1CN(c2ccccc2)C2(CCN(Cc3cccc4ccccc34)CC2)C1=O | -5.7% |
| Oc1ncnc2[nH]ncc12 | 0.33% |
| CN(C)CCn1nnnc1SCC1=C(C(=O)O)N2C(=O)[C@@H](NC(=O)Cc3csc(N)n3)[C@H]2SC1 | -1.57% |
| CC1(C)CCC(C)(C)c2cc(C(=O)Nc3ccc(C(=O)O)cc3)ccc21 | 9.61% |
| Cc1cnc(-c2cc(N3CCN(C(=O)CCS(C)(=O)=O)CC3)ncc2Cl)c(C)c1 | -0.27% |

Series 3
Target: Sal-like protein 4, full length isoform B (SALL4, Homo sapiens, UniProt Q9UJQ4-2, residues 1-616)
Method: universal PBM
Molecule type: double-stranded DNA, one strand shown
Sample: in vitro
Tested at: not given
Notes: 8-mer, flanks averaged, mean of replicates
Direction: higher = stronger binding
Target sequence (chain): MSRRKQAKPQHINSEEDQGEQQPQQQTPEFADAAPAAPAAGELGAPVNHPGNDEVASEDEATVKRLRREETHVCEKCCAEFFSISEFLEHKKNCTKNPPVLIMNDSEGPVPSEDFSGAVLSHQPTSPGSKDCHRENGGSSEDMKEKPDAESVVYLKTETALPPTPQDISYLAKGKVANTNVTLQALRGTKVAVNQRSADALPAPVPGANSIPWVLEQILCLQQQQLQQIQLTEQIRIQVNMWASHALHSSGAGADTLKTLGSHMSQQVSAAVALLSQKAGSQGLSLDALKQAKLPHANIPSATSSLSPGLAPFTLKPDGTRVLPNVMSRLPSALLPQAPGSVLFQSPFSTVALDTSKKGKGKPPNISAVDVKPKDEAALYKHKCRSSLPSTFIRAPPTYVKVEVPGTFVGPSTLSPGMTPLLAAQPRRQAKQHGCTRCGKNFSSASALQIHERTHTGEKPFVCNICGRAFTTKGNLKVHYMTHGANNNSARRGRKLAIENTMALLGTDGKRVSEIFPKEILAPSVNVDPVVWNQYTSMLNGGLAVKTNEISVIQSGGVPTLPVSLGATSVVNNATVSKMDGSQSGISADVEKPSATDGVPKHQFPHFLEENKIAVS
| Strand | E-score |
| --- | --- |
| ATGAATCC | 0.187 |
| ACGTTAAG | 0.00687 |
| CGCAATAC | 0.11 |
| CTTTTGAA | 0.0957 |
| CTATCGTC | -0.0592 |
| ATCCATGG | -0.082 |
| ATGAGGAG | 0.0916 |
| AGGAGCCC | -0.27 |

Series 4
Target: Interferon regulatory factor 7, full length, phosphomimetic (IRF7, Homo sapiens, UniProt Q92985, residues 1-503, S101K/S471D/S472D/S475D/S476D/S477D/S483D/S484D/S487D)
Method: protein-binding microarray
Molecule type: double-stranded DNA, one strand shown
Sample: in vitro
Tested at: 250 nM
Notes: 60-bp whole probe
Together with: salmon DNA 0.4 mg/ml
Baseline: random background probes
Direction: higher = stronger binding
All sequences stand within: GCCTAGCAC … GTCTTGATTCGCTTGACGCTGCTG
Target sequence (chain): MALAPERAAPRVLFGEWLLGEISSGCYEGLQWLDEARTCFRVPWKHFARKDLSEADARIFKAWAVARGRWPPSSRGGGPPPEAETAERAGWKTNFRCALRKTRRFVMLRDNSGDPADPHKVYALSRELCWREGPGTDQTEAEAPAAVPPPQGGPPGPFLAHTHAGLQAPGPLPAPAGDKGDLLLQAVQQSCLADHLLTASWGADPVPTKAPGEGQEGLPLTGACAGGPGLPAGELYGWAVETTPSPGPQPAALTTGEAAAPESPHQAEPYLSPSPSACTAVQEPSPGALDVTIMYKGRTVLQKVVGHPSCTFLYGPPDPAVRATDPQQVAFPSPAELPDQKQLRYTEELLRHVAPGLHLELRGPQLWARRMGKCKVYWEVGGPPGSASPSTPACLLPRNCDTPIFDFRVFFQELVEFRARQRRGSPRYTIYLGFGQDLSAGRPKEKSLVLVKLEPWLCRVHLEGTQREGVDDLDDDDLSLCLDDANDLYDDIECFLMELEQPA
| Strand | log fluorescence [z-score] |
| --- | --- |
| GACGAATTCGGGTTTCGAGACGTGCTA | 3.85 |
| GACGATCTCCTACTGCTGACGTGCTAG | -0.146 |
| TTACGTTTCGGGTATCGGTTAGTGCTA | 3.83 |
| TCACCACCCGCTCTGGCACTGTGCTAG | -0.49 |
| TCAGGGCTCTTCTCTGAAACTGTGCTA | -0.325 |
| TTAGATATCGGGACTGGAATAGTGCTA | 0.0821 |
| TTAGGACTGCTACTGCTTTCGTGCTAG | -0.507 |
| TCATATGTACTCTCTCCAACTGTGCTA | 0.254 |

Series 5
Target: RNA binding protein fox-1 homolog 2, RRM domain, GST-SBP tag (RBFOX2, Homo sapiens, UniProt O43251-10, residues 100-194)
Method: RNA Bind-n-Seq
Molecule type: RNA
Sample: in vitro
Tested at: 365 nM
Notes: natural RNA segment, single round, ends assumed
Baseline: no-protein control
Direction: higher = stronger binding
All sequences stand within: GGGAGUUCUACAGUCCGACGAUC … UGGAAUUCUCGGGUGCCAA
Construct (chain): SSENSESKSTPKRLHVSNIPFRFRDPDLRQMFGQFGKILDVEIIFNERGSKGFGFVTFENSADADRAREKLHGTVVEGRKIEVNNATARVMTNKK
| Strand | RBNS enrichment (R) |
| --- | --- |
| AUGGAAAUUAUUUUUCCAAAAUAAAGGAGAUAAAGUGCCAUCCCAAAACACACAGAUAUUAUUAGAGAGACUUUACUUUCUAGUGCUGGAAUAACCAUGGAGCAAAGAGA | 0.356 |
| AGCUUAAGCCUGUUGCUAAGAAAUUUAAUUUCUUAGCAACUUGUAAUUUAGUUAUCAAUUCAAUAUAGCUCUGUUGAUUAAAUAGCCGAUAGUAUUGUGGCUCUCCUCUU | 0.199 |
| GAGGAAUUACGUGCUCUGUGGGUCUCCCCCAACGCGCCUCGCCGGAUCUGAGGGAGAACAAGACCGAUCGGCGGCCACUGCGCCCUUAACUGCAUCCAGCCUGGGGCUGA | 0.646 |
| GAUCUCCUCACACUGGUAAUGUCUUUCCUGUUAGAGAGGUUUAUGCUACCACUUCGCAUUUCAUCUGUGAGGCAUUUCAUCUUUUAGACAUGUCUUCAUGUCCAGCUACU | 0.399 |
| CUUCUAUUUAUUUAACAUCGAGGGUUGGGGGAGGGGUUGGUCCUGCCCUCGGCUGGAGUUCCUUUCUCACCCCUGUGAUUUGGAGGUGUGGAGAAGGGGAAGGGAGGGAC | 0.641 |

Series 6
Target: Replicase polyprotein 1ab, main protease (rep, Severe acute respiratory syndrome coronavirus 2, UniProt P0DTD1)
Observed: enzyme activity
Action: inhibitor
Tested at: 20 µM
Notes: hit confirmation, no DTT
| Structure (SMILES) | inhibition |
| --- | --- |
| COc1cc(C(=S)N2CCOCC2)ccc1O | 99.4% |
| CSc1ccc(C(=O)c2[nH]c(=O)[nH]c2C)cc1 | 68.4% |
| CC(C)(C)c1ccc(S(=O)(=O)/C=C/C#N)cc1 | 98.9% |
